Measurements collected from several papers.
Compare with care: the assays were run in different laboratories.
Target: Serine/threonine-protein kinase OSR1 (OXSR1, Homo sapiens, UniProt O95747)

SMILES	assay	system	setting	scale	measurement	result
NC(=O)C[C@H]1CCc2sc3ncnc(O[C@H]4CC[C@H](N5CCOCC5)CC4)c3c21	enzyme activity, inhibitor	–	10 µM	–	inhibition	-2%
COc1cc(Nc2nc(C)cc(-c3cnn4nc(OC)ccc34)n2)cc(C(F)(F)F)c1	inhibitor	–	1 µM, OSR1	baseline: control	remaining activity	83%
C=CC(=O)Nc1cc(-c2nn(C3CCN(CCNC(=O)[C@H](C)CCC45CC6CC(CC(C6)C4)C5)CC3)c3ncnc(N)c23)ccc1Oc1ccccc1	inhibitor, KiNativ profiling	biochemical	2 µM	–	inhibition	32.1%
CNC(=O)C1CCN(c2cc(C)c(F)cc2NC(=O)c2ccc(-c3cc(O)ccc3C)c(C)c2)CC1	binding, competition with immobilised ligand	–	1 µM	–	remaining binding	100%
Nc1ncc2c(n1)-c1c([nH]c3ccc(C4=CCOCC4)cc13)CCC2	binding, competition with immobilised ligand	–	1 µM	–	remaining binding	100%
C=CC(=O)N1CCc2ccc(-n3c(=O)ccc4cnc5ccc(-c6cnn(C)c6)cc5c43)cc21	KINOMEscan	–	1 µM	baseline: DMSO control	remaining binding	89%
COc1cc(Nc2nccc(-c3cnn4nc(OC)ccc34)n2)cc(C(F)(F)F)c1	binding, competition with immobilised ligand	–	1 µM	–	remaining binding	77%
O=C(Cc1ccc(OCc2ccccc2)cc1)NC1(C(=O)O)CCN(C(=O)c2ccc(-c3cccc(Cl)c3)cc2)CC1	enzyme activity, inhibitor	–	10 µM	–	activity vs control	100%
NC(=O)[C@@H](O)C[C@H]1CCc2sc3ncnc(O[C@H]4CC[C@H](N5CCOCC5)CC4)c3c21	enzyme activity, inhibitor	–	10 µM	–	inhibition	8%
Nc1ncc(-c2cc(-c3cnn(CC(F)(F)F)c3)ncc2F)nc1C(=O)NC1CNCC(F)C1 (centres unmarked)	enzyme activity	–	1 µM	baseline: DMSO control	remaining activity	110%
Cc1ccc(-c2c(/C=C(\C#N)C(=O)NC(C)C)n(CCCO)c3ncnc(N)c23)cc1	cell-free assay, competition with immobilised ligand	–	1 µM	–	remaining binding	100%
CNC1C[S+]2CC[S+]3CC[S+](C1)[Ru-4]321([N]=C=S)[n]2c3ccc(OC)cc3c3c4c(c5cc(F)c[n+]1c5c32)C(=O)NC4=O (centres unmarked)	KinomeScan	–	0.1 µM	baseline: untreated	remaining binding	56%
CC(C)=CC1OC(C)(C)C2C=C3C(=O)C(Cl)=CC(O)C3C3C(O)C4OC4C(=O)C132 (centres unmarked)	cell-free assay, competition with immobilised ligand	–	10 µM	–	remaining binding	73%
C=CC(=O)N1CCCC(n2c(=O)c3ncccc3n(Cc3ccc(Oc4ccccc4)cc3)c2=O)C1 (centres unmarked)	cell-free assay, competition with immobilised ligand	–	1 µM	–	remaining binding	53%
CCN1CCN(Cc2ccc(C(=O)Nc3ccc(C)c(NCc4cnc5[nH]ccc5c4OC)c3)cc2C(F)(F)F)CC1	binding, competition with immobilised ligand	–	1 µM	–	remaining binding	100%
Cc1cnc2nc1Nc1cccc(c1)COC/C=C/COCc1cc(ccc1OCCN1CCOCC1)N2	binding, competition with immobilised ligand	–	0.1 µM	–	remaining binding	86%
COc1c(Cl)cccc1Nc1c(-c2ccncc2C#C[C@@]2(C)CCCN2C(=O)/C=C/CN(C)C)[nH]c2c1C(=O)NCC2	binding, competition with immobilised ligand	–	3 µM	–	remaining binding	92%

A few entries again:
SMILES	assay	system	setting	scale	measurement	result
CNC(=O)C1CCN(c2cc(C)c(F)cc2NC(=O)c2ccc(-c3cc(O)ccc3C)c(C)c2)CC1	binding, competition with immobilised ligand	–	1 µM	–	remaining binding	100%
Nc1ncc2c(n1)-c1c([nH]c3ccc(C4=CCOCC4)cc13)CCC2	binding, competition with immobilised ligand	–	1 µM	–	remaining binding	100%
C=CC(=O)N1CCc2ccc(-n3c(=O)ccc4cnc5ccc(-c6cnn(C)c6)cc5c43)cc21	KINOMEscan	–	1 µM	baseline: DMSO control	remaining binding	89%
